Assay results of several laboratories.
Each line is one published result; not all experiments were run side by side. “And” joins repeats or separate records; there may be more than shown. ± marks the error that the study gave.

| Structure (SMILES) | cell line | assay | test system | conditions | scale | endpoint | result |
| --- | --- | --- | --- | --- | --- | --- | --- |
| O=C(C[Se]C(=O)c1ccc2ccccc2n1)Nc1cccc(C(F)(F)F)c1 | NCI60 colon subpanel | NCI60 five-dose screen | – | – | – | CC50 | 25.6 µM |
| CCCNC(=O)[C@H]1O[C@@H]1C(=O)N[C@H](C(=O)N1CCC[C@H]1C(=O)OCC1=C2C(C)=CC(C)=[N+]2[B-](C)(C)n2c(C)cc(C)c21)[C@@H](C)CC | MDA-MB-231 | MTT | – | – | relative to: dark over light | phototherapeutic index | > 30 |
| CSCC[C@H](N)C(=O)N[C@@H](C)C(=O)N[C@@H](Cc1c[nH]c2ccccc12)C(=O)N[C@@H](Cc1c[nH]cn1)C(=O)N[C@@H](CC(=O)O)C(=O)N[C@@H](CC(=O)O)C(=O)N[C@@H](CCC(=O)O)C(=O)N[C@@H](CCC(=O)O)C(=O)N[C@@H](Cc1ccccc1)C(=O)N[C@@H](C)C(=O)N[C@@H](CCCNC(=N)N)C(=O)N[C@@H](CCCNC(=N)N)C(=O)N[C@@H](CCCNC(=N)N)C(=O)N[C@@H](CCCNC(=N)N)C(=O)NCCCCCC(=O)NCCCCC(NC(=O)CCCCCNC(=O)[C@H](CCCNC(=N)N)NC(=O)[C@H](CCCNC(=N)N)NC(=O)[C@H](CCCNC(=N)N)NC(=O)[C@H](CCCNC(=N)N)NC(=O)[C@H](C)NC(=O)[C@H](Cc1ccccc1)NC(=O)[C@H](CCC(=O)O)NC(=O)[C@H](CCC(=O)O)NC(=O)[C@H](CC(=O)O)NC(=O)[C@H](CC(=O)O)NC(=O)[C@H](Cc1c[nH]cn1)NC(=O)[C@H](Cc1c[nH]c2ccccc12)NC(=O)[C@H](C)NC(=O)[C@@H](N)CCSC)C(=O)NCCCCC(NC(=O)C(CCCCNC(=O)CCCCCNC(=O)[C@H](CCCNC(=N)N)NC(=O)[C@H](CCCNC(=N)N)NC(=O)[C@H](CCCNC(=N)N)NC(=O)[C@H](CCCNC(=N)N)NC(=O)[C@H](C)NC(=O)[C@H](Cc1ccccc1)NC(=O)[C@H](CCC(=O)O)NC(=O)[C@H](CCC(=O)O)NC(=O)[C@H](CC(=O)O)NC(=O)[C@H](CC(=O)O)NC(=O)[C@H](Cc1c[nH]cn1)NC(=O)[C@H](Cc1c[nH]c2ccccc12)NC(=O)[C@H](C)NC(=O)[C@@H](N)CCSC)NC(=O)CCCCCNC(=O)[C@H](CCCNC(=N)N)NC(=O)[C@H](CCCNC(=N)N)NC(=O)[C@H](CCCNC(=N)N)NC(=O)[C@H](CCCNC(=N)N)NC(=O)[C@H](C)NC(=O)[C@H](Cc1ccccc1)NC(=O)[C@H](CCC(=O)O)NC(=O)[C@H](CCC(=O)O)NC(=O)[C@H](CC(=O)O)NC(=O)[C@H](CC(=O)O)NC(=O)[C@H](Cc1c[nH]cn1)NC(=O)[C@H](Cc1c[nH]c2ccccc12)NC(=O)[C@H](C)NC(=O)[C@@H](N)CCSC)C(N)=O (stereo partly shown) | mouse bone marrow macrophages | RT-qPCR, refers to: Mapk14 (p38α) | – | concentration not given, mean, unit not given, with: RANKL | relative to: RANKL alone | mRNA level | 1.06 |
| N[C@H](C(=O)N1CCCC1)C1CCN(c2nccc3c(-c4ncc(Cl)cc4Cl)cccc23)CC1 | human neutrophils | protein citrullination, inhibitor, flow cytometry, refers to: citrullinated proteins | – | 1 µM, with: ionomycin | – | inhibition | 44.4% and 26% and 41.1% and 47.7% |
| O=c1n(CCNCCOS(=O)(=O)c2ccccc2)c(=O)n(S(=O)(=O)c2ccccc2)c(=O)n1S(=O)(=O)c1ccccc1 | A549 | cell growth or viability, MTT | – | 12.5 µg/mL, 72 h | – | viability | 55.6% |
| CC(C)(C)C(=O)OCOP(=O)(OCOC(=O)C(C)(C)C)C1CCCN(O)C1=O (stereo not shown) | M14 | – | – | – | – | TGI | 14.1 µM |
| CC1CCC2C(C)C(OC(=O)CCC(=O)N3CCC(Nc4ccc(S(=O)(=O)NC(=O)c5ccc(N6CCN(CC7=C(c8ccc(Cl)cc8)CC(C)(C)CC7)CC6)cc5Oc5cnc6[nH]ccc6c5)cc4[N+](=O)[O-])CC3)OC3OC4(C)CCC1C32OO4 (stereo not shown) | THP-1 | annexin V/PI flow cytometry, refers to: annexin V-/PI+ | – | 3.2 µM, 24 h | – | necrotic cells | 1.1% |
| CC(=O)NCSC[C@H](NC(=O)[C@@H]1CCCN1C(=O)[C@H](C)NC(=O)[C@@H](NC(=O)CNC(=O)[C@@H](NC(=O)[C@H](Cc1c[nH]c2ccccc12)NC(=O)[C@H](C)NC(=O)CNC(=O)[C@H](CO)NC(=O)[C@H](C)NC(=O)[C@@H]1CCCN1C(=O)[C@H](Cc1c[nH]c2ccccc12)NC(=O)[C@H](C)NC(=O)[C@H](C)NC(=O)[C@@H](N)Cc1ccc(O)cc1)[C@@H](C)O)[C@@H](C)O)C(=O)N[C@@H](CO)C(=O)N[C@@H](C)C(=O)NCC(=O)N[C@H](C(=O)NCCOCCOCCOCCOCCOCCOCCOCCOCCOCCOCCOCCOCCC(=O)N[C@@H](CS)C(N)=O)[C@@H](C)O | H1355 lung adenocarcinoma | cell binding, phage binding, refers to: output/input phage | – | 10 min, 37 °C | relative to: control phage | selectivity ratio | 4.5 ± 3.2 |
| O=C(C[Se]C(=O)c1cccs1)Nc1cccc(C(F)(F)F)c1 | NCI60 breast subpanel | NCI60 five-dose screen | – | – | – | CC50 | 11.3 µM |
| Cc1cc(Oc2nc(N3CC[C@@H](c4ccncc4)C3)ncc2F)[nH]n1 | HL-60 | cell proliferation | blood cancer | – | – | IC50 | 31.6 µM |

Some of these lines once more:
| Structure (SMILES) | cell line | assay | test system | conditions | scale | endpoint | result |
| --- | --- | --- | --- | --- | --- | --- | --- |
| CC(=O)NCSC[C@H](NC(=O)[C@@H]1CCCN1C(=O)[C@H](C)NC(=O)[C@@H](NC(=O)CNC(=O)[C@@H](NC(=O)[C@H](Cc1c[nH]c2ccccc12)NC(=O)[C@H](C)NC(=O)CNC(=O)[C@H](CO)NC(=O)[C@H](C)NC(=O)[C@@H]1CCCN1C(=O)[C@H](Cc1c[nH]c2ccccc12)NC(=O)[C@H](C)NC(=O)[C@H](C)NC(=O)[C@@H](N)Cc1ccc(O)cc1)[C@@H](C)O)[C@@H](C)O)C(=O)N[C@@H](CO)C(=O)N[C@@H](C)C(=O)NCC(=O)N[C@H](C(=O)NCCOCCOCCOCCOCCOCCOCCOCCOCCOCCOCCOCCOCCC(=O)N[C@@H](CS)C(N)=O)[C@@H](C)O | H1355 lung adenocarcinoma | cell binding, phage binding, refers to: output/input phage | – | 10 min, 37 °C | relative to: control phage | selectivity ratio | 4.5 ± 3.2 |
| O=C(C[Se]C(=O)c1ccc2ccccc2n1)Nc1cccc(C(F)(F)F)c1 | NCI60 colon subpanel | NCI60 five-dose screen | – | – | – | CC50 | 25.6 µM |
